Measurements collected from several papers.
Protocols differ between the studies behind these lines.
Organism: Escherichia coli

CC[C@H](C)[C@H](NC(=O)[C@H](CCCCN)NC(=O)[C@H](CCCCN)NC(=O)[C@H](Cc1ccccc1)NC(=O)[C@H](Cc1ccccc1)NC(=O)[C@H](CCCCN)NC(=O)[C@H](CCCCN)NC(=O)[C@H](Cc1ccccc1)NC(=O)[C@H](CCCNC(=N)N)NC(=O)[C@@H](N)CCCCN)C(=O)N[C@@H](CCCCN)C(=O)N[C@@H](CCCCN)C(=O)N[C@@H](CO)C(=O)N[C@H](C(=O)N[C@@H](CCCCN)C(=O)N[C@@H](CCCCN)C(=O)N[C@@H](CCCNC(=N)N)C(=O)N[C@H](C(=O)N[C@@H](CCCCN)C(=O)N[C@@H](CCCCN)C(=O)N[C@@H](CC(C)C)C(=O)N[C@@H](Cc1ccccc1)C(=O)N[C@@H](CCCCN)C(=O)N[C@@H](CCCCN)C(=O)N1CCC[C@H]1C(=O)N[C@@H](CCCNC(=N)N)C(=O)N[C@H](C(=O)N[C@H](C(=O)N1CCC[C@H]1C(=O)N[C@H](C(=O)N[C@@H](CO)C(=O)N[C@H](C(=O)N1CCC[C@H]1C(=O)N[C@@H](Cc1ccccc1)C(=O)O)[C@@H](C)CC)[C@@H](C)CC)[C@@H](C)CC)C(C)C)C(C)C)C(C)C
MIC (broth microdilution; E27 clinical isolate; 20 h): 4 mg/L

CC(C)Oc1c(NC(=O)c2ccc(NC(=O)C(CC(N)=O)NC(=O)c3cc(F)c(N=Nc4c(F)cccc4F)c(F)c3)cc2)ccc(C(=O)NN=Cc2ccc(C(=O)O)cc2)c1O (stereo not shown)
MIC (BW25113; dark ground state): > 6.4 mg/L

CC(C)C[C@H](NC(=O)[C@H](CCCCN)NC(=O)C1CCCC=CCCC(NC(=O)[C@H](CCCCN)NC(=O)[C@@H](N)CC(C)C)C(=O)N[C@@H](CCCCN)C(=O)N[C@@H](CC(C)C)C(=O)N[C@@H](CCCCN)C(=O)N2CCC[C@@H]2C(=O)NCC(=O)N[C@@H](CCCCN)C(=O)N[C@@H](CC(C)C)C(=O)N[C@@H](CCCCN)C(=O)N1)C(N)=O (stereo partly shown)
MIC (broth microdilution; ATCC 25922, Mueller-Hinton broth; 18 h, 37 °C): 8 µM

CC[C@H](C)[C@H](NC(=O)[C@@H](CCCNC(=N)N)NC(=O)[C@H](CCCNC(=N)N)NC(=O)[C@@H]1CCCN1C(=O)[C@@H]1CCCN1C(=O)[C@H](CCCNC(=N)N)NC(=O)[C@@H]1CCCN1C(=O)[C@H](CCCNC(=N)N)NC(=O)[C@@H]1CCCN1C(=O)[C@H](CC(C)C)NC(=O)[C@H](Cc1cc(I)c(O)c(I)c1)NC(=O)[C@@H]1CCCN1C(=O)[C@@H]1CCCN1C(=O)[C@H](CCCCN)NC(=O)[C@H](CC(=O)O)NC(=O)[C@@H](N)C(C)C)C(=O)N[C@@H](Cc1ccc(O)cc1)C(=O)N[C@@H](CC(N)=O)C(=O)N[C@H](CCCNC(=N)N)C(N)=O
MIC (broth microdilution; ATCC 25922; 18 h, 37 °C, 25% MHB2): > 128 mg/L

CC1(C)C(NC(=O)C(=NOC2(C(=O)O)CC2)c2csc(N)n2)C(=O)N1OS(=O)(=O)O (stereo not shown)
MIC (13-1, NDM-positive; compound alone): 2 mg/L

CC(C)[C@H](NC(=O)[C@H](Cc1ccc(O)cc1)NC(=O)[C@H](CS)NC(=O)[C@@H](NC(=O)[C@H](CCCNC(=N)N)NC(=O)[C@H](Cc1ccccc1)NC(=O)[C@H](CS)NC(=O)[C@H](Cc1c[nH]c2ccccc12)NC(=O)[C@@H](N)CCCNC(=N)N)C(C)C)C(=O)NCC(=O)N[C@@H](Cc1ccccc1)C(=O)N[C@@H](CS)C(=O)N[C@@H](Cc1ccc(O)cc1)C(=O)N[C@@H](Cc1c[nH]c2ccccc12)C(=O)N[C@@H](CCCCN)C(=O)N[C@@H](CS)C(=O)N[C@@H](CCCNC(=N)N)C(=O)O
MIC (broth microdilution; ATCC 25922, Mueller-Hinton broth; 16 to 20 h, 37 °C): 17.6 mg/L

CCCCCCCC(=O)N[C@@H](CCN)C(=O)N[C@H](C(=O)N[C@@H](CCN)C(=O)N[C@H]1CCNC(=O)[C@H]([C@@H](C)O)NC(=O)[C@H](CCN)NC(=O)[C@H](CCN)NC(=O)[C@H](CC(C)C)NC(=O)[C@@H](Cc2ccc(Br)cc2)NC(=O)[C@H](CCN)NC1=O)[C@@H](C)O
MIC (broth microdilution; ATCC 25922, colistin-susceptible): < 0.125 mg/L

CC[C@H](C)[C@@H]1NC(=O)[C@H](C(C)C)NC(=O)[C@H](C(C)C)NC(=O)[C@H](CC(C)C)NC(=O)C[C@@H](C(=O)N[C@@H](Cc2c[nH]c3ccccc23)C(=O)N[C@@H](CC(N)=O)C(=O)N[C@@H](C)C(=O)N2CCC[C@H]2C(=O)NCC(=O)N[C@@H](Cc2c[nH]c3ccccc23)C(=O)N[C@@H](Cc2ccccc2)C(=O)O)NC(=O)[C@H](C)NC(=O)[C@H](CCC(N)=O)NC(=O)[C@H](C(C)C)NC1=O
MIC (ATCC 25922): > 32 mg/L

CC(C)C[C@H](NC(=O)[C@H](CCCCN)NC(=O)[C@H](CCCCN)NC(=O)[C@H](Cc1ccccc1)NC(=O)[C@H](CC(C)C)NC(=O)[C@H](CCCCN)NC(=O)[C@H](CCCCN)NC(=O)[C@H](Cc1ccccc1)NC(=O)[C@H](CCCCN)NC(=O)[C@H](CCCCN)NC(=O)[C@H](CCCNC(=N)N)NC(=O)[C@H](Cc1ccccc1)NC(=O)[C@H](CCCNC(=N)N)NC(=O)[C@H](CCCCN)NC(=O)[C@H](Cc1ccccc1)NC(=O)[C@H](CCCNC(=N)N)NC(=O)CN)C(=O)N[C@@H](CO)C(=O)N[C@@H](Cc1c[nH]cn1)C(=O)N[C@@H](Cc1c[nH]cn1)C(=O)N[C@@H](Cc1c[nH]cn1)C(=O)N[C@@H](Cc1c[nH]cn1)C(=O)N[C@@H](Cc1c[nH]cn1)C(=O)O
MIC (broth microdilution; M/14072, Mueller-Hinton broth): 5 µM

CC[C@H](C)[C@H](NC(=O)[C@@H](CCCNC(=N)N)NC(=O)[C@H](CCCNC(=N)N)NC(=O)[C@@H]1CCCN1C(=O)[C@@H]1CCCN1C(=O)[C@H](Cc1c[nH]c2ccccc12)NC(=O)[C@@H]1CCCN1C(=O)[C@H](CCCNC(=N)N)NC(=O)[C@@H]1CCCN1C(=O)[C@H](CC(C)C)NC(=O)[C@H](Cc1ccc(O)cc1)NC(=O)[C@@H]1CCCN1C(=O)[C@@H]1CCCN1C(=O)[C@H](CCCCN)NC(=O)[C@H](CC(=O)O)NC(=O)[C@@H](N)C(C)C)C(=O)N[C@@H](Cc1ccc(O)cc1)C(=O)N[C@@H](CC(N)=O)C(=O)N[C@H](CCCNC(=N)N)C(N)=O
MIC (broth microdilution; MC4100; 18 h, 37 °C, 25% MHB2): 8 mg/L

OB(O)c1ccc(OCc2ccccc2)nc1F
MIC (bacterial growth; AmpC-overproducing clinical isolate; without cefotaxime): > 2050 mg/L

CC[C@H](C)[C@H](NC(=O)[C@@H](CCCNC(=N)N)NC(=O)[C@H](CCCNC(=N)N)NC(=O)[C@@H]1CCCN1C(=O)[C@@H]1CCCN1C(=O)[C@H](CCCNC(=N)N)NC(=O)[C@@H]1CCCN1C(=O)[C@H](CCCNC(=N)N)NC(=O)[C@@H]1CCCN1C(=O)[C@H](CC(C)C)NC(=O)[C@H](Cc1ccccc1)NC(=O)[C@@H]1CCCN1C(=O)[C@@H]1CCCN1C(=O)[C@H](CCCCN)NC(=O)[C@H](CC(=O)O)NC(=O)[C@@H](N)C(C)C)C(=O)N[C@@H](Cc1ccc(O)cc1)C(=O)N[C@@H](CC(N)=O)C(=O)N[C@H](CCCNC(=N)N)C(N)=O
MIC (broth microdilution; BW25113; 18 h, 37 °C, 25% MHB2): 16 mg/L

CC(C)C[C@@H](NC(=O)[C@H](NC(=O)[C@@H](CCCCN)NC(=O)[C@@H](CCCCN)NC(=O)[C@@H](CC(C)C)NC(=O)[C@@H](Cc1c[nH]c2ccccc12)NC(=O)[C@@H](CCCCN)NC(=O)[C@@H](Cc1c[nH]c2ccccc12)NC(=O)[C@@H](CC(C)C)NC(=O)[C@@H](CCCCN)NC(=O)[C@@H](CCCCN)NC(=O)[C@H](N)C(C)C)C(C)C)C(N)=O
MIC (24 h, 37 °C, Mueller-Hinton broth, FeCl3 4 µM): 16 µM

CC[C@H](C)[C@H](N)C(=O)N1CCC[C@H]1C(=O)N[C@@H](Cc1ccccc1)C(=O)N[C@@H](Cc1c[nH]c2ccccc12)C(=O)N[C@@H](CCCNC(=N)N)C(=O)N[C@@H](Cc1c[nH]c2ccccc12)C(=O)N[C@@H](CC(C)C)C(=O)N[C@@H](CC(C)C)C(=O)N[C@@H](CCC(N)=O)C(=O)N[C@@H](CCCNC(=N)N)C(=O)N[C@@H](CC(C)C)C(=O)N1CCC[C@H]1C(=O)NCC(=O)O
MIC (broth microdilution; ATCC 25922): 76.1 µM

CC[C@H](C)[C@H](NC(=O)[C@@H](NC(=O)[C@H](CCCCN)NC(=O)[C@H](CCC(N)=O)NC(=O)[C@@H](NC(=O)[C@H](Cc1c[nH]c2ccccc12)NC(=O)[C@H](CCCCN)NC(=O)[C@H](CCCCN)NC(=O)[C@H](CC(C)C)NC(=O)[C@H](CCCNC(=N)N)NC(=O)[C@H](Cc1ccccc1)NC(=O)[C@@H](N)C(C)C)[C@@H](C)CC)C(C)C)C(N)=O
MIC (24 h, 37 °C, Mueller-Hinton broth, KCl 4.5 mM): 32 µM

CO[C@@H](C(N)=O)[C@H](NC(=O)c1ccc(NC(=O)[C@@H](N)Cc2ccc(O)cc2)cc1)C(=O)Nc1ccc(C(=O)Nc2ccc(C(=O)Nc3ccc(C(=O)O)cc3)c(O)c2OC(C)C)cc1
MIC (monooxygenase clone; 16 h, 37 °C): 1 mg/L

CC(=O)N[C@@H](CC(C)C)C(=O)N[C@H]1CSSC[C@@H](C(=O)N2CCC[C@H]2C(N)=O)NC(=O)[C@H]([C@@H](C)O)NC(=O)[C@H](C(C)C)NC(=O)[C@H]([C@@H](C)O)NC(=O)[C@H](CCCCN)NC(=O)[C@H](CC(C)C)NC(=O)[C@H](Cc2ccccc2)NC(=O)[C@H](Cc2ccc(O)cc2)NC(=O)[C@H](CC(C)C)NC(=O)[C@H](CCCCN)NC(=O)[C@H](Cc2ccccc2)NC(=O)[C@H](CCCNC(=N)N)NC(=O)[C@H](CCC(N)=O)NC(=O)[C@H](CC(C)C)NC(=O)[C@H](CCCCN)NC(=O)[C@@H]2CCCN2C(=O)[C@H](CCCCN)NC(=O)[C@H](C(C)C)NC(=O)[C@H](CC(N)=O)NC(=O)[C@H](Cc2ccc(O)cc2)NC(=O)[C@H]([C@@H](C)O)NC1=O
MIC (broth dilution; laboratory strain; 24 h): 2.5 to 5 µM

CC[C@H](C)[C@H](NC(=O)[C@@H](CCCNC(=N)N)NC(=O)[C@H](CCCNC(=N)N)NC(=O)[C@H](CC(C)C)NC(=O)[C@H](Cc1c[nH]c2ccccc12)NC(=O)[C@H](CCCNC(=N)N)NC(=O)[C@@H]1CCCN1C(=O)[C@H](CCCNC(=N)N)NC(=O)[C@@H]1CCCN1C(=O)[C@H](CC(C)C)NC(=O)[C@H](Cc1ccc(O)cc1)NC(=O)[C@@H]1CCCN1C(=O)[C@@H]1CCCN1C(=O)[C@H](CCCCN)NC(=O)[C@H](CC(=O)O)NC(=O)[C@@H](N)C(C)C)C(=O)N[C@@H](Cc1ccc(O)cc1)C(=O)N[C@@H](CC(N)=O)C(=O)N[C@H](CCCNC(=N)N)C(N)=O
MIC (broth microdilution; ATCC 25922; 18 h, 37 °C, 25% MHB2): 8 mg/L

COc1c(NC(=O)c2ccc(NC(=O)c3ccc(NC(=O)[C@H](CC#N)NC(=O)c4ccc(NC(=O)/C(C)=C/c5ccc(O)cc5)cc4)cc3)c(OC)c2O)ccc(C(=O)O)c1O
MIC (K12 ΔtolC): 0.06 mg/L

A few entries again:
CC(C)C[C@H](NC(=O)[C@H](CCCCN)NC(=O)C1CCCC=CCCC(NC(=O)[C@H](CCCCN)NC(=O)[C@@H](N)CC(C)C)C(=O)N[C@@H](CCCCN)C(=O)N[C@@H](CC(C)C)C(=O)N[C@@H](CCCCN)C(=O)N2CCC[C@@H]2C(=O)NCC(=O)N[C@@H](CCCCN)C(=O)N[C@@H](CC(C)C)C(=O)N[C@@H](CCCCN)C(=O)N1)C(N)=O (stereo partly shown)
MIC (broth microdilution; ATCC 25922, Mueller-Hinton broth; 18 h, 37 °C): 8 µM

CC(C)[C@H](NC(=O)[C@H](Cc1ccc(O)cc1)NC(=O)[C@H](CS)NC(=O)[C@@H](NC(=O)[C@H](CCCNC(=N)N)NC(=O)[C@H](Cc1ccccc1)NC(=O)[C@H](CS)NC(=O)[C@H](Cc1c[nH]c2ccccc12)NC(=O)[C@@H](N)CCCNC(=N)N)C(C)C)C(=O)NCC(=O)N[C@@H](Cc1ccccc1)C(=O)N[C@@H](CS)C(=O)N[C@@H](Cc1ccc(O)cc1)C(=O)N[C@@H](Cc1c[nH]c2ccccc12)C(=O)N[C@@H](CCCCN)C(=O)N[C@@H](CS)C(=O)N[C@@H](CCCNC(=N)N)C(=O)O
MIC (broth microdilution; ATCC 25922, Mueller-Hinton broth; 16 to 20 h, 37 °C): 17.6 mg/L
